Measurements of several laboratories.
A part holds a random share of what one study measured. Positions count from the first letter of the parent shown.

Set 1 — Change: L112Q; method: DHFR PCA, deep sequencing; medium: yeast; baseline: wild-type fitted maximum; reading: higher = stronger binding
Target: ABI1, truncated, D143A, DHFR fusion (Arabidopsis thaliana)
Notes: methotrexate growth selection, single substitutions
Parent: PYL1, truncated, DHFR fusion (Arabidopsis thaliana); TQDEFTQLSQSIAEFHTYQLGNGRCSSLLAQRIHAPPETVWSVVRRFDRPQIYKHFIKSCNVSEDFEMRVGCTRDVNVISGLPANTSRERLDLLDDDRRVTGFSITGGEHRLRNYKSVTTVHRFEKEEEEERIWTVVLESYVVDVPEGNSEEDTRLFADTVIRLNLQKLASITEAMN; partner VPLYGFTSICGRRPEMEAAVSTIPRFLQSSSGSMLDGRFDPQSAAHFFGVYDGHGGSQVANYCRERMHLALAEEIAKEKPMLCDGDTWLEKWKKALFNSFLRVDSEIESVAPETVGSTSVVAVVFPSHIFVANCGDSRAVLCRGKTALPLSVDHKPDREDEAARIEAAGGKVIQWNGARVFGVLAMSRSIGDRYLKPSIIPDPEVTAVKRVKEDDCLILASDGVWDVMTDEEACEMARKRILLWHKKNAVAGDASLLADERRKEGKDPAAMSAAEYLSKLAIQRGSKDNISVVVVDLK
It gave -3.9% for “relative binding score” (added: (+)-ABA 200 µM).
The “relative binding score” was -6.6% (added: (+)-ABA 17 µM).
It gave 4.39% for “relative binding score” (added: (+)-ABA 2500 µM).
added: (+)-ABA 0 µM — “relative binding score”: 1.16%.
It gave -0.767% for “relative binding score” (added: (+)-ABA 0.39 µM).
added: (+)-ABA 710 µM — “relative binding score”: 4.34%.

Set 2 — method: protein-binding microarray; form: double-stranded DNA, one strand shown; medium: in vitro; tested at: 250 nM; notes: 60-bp whole probe; added: salmon DNA 0.4 mg/ml; baseline: random background probes; reading: higher = stronger binding; all sequences stand within: GCCTAGCAC … GTCTTGATTCGCTTGACGCTGCTG
Target: Interferon regulatory factor 5, full length, phosphomimetic (IRF5, Homo sapiens, UniProt Q13568-2, residues 1-514, K96S/S451D/S453D/S456D/S462D)
For `TCTCTGCTACCCTCTGAAAGTGTGCTA`, the log fluorescence was 0.701 z-score.
For `TTAGAACTGGGGACTGGATAAGTGCTA`, the log fluorescence was -0.222 z-score.
`TTAGCACTGGGGTTTCGATTAGTGCTA` has a log fluorescence of 5.14 z-score.
`CTATTTTTCACCTGCACTCAGTGCTAG` has a log fluorescence of 1.47 z-score.
The log fluorescence of `GACGATTTCGGGTATCGCGACGTGCTA` is reported as 4.05 z-score.
`TCAAATTTCCCTCTGCTACTGTGCTAG` has a log fluorescence of 0.694 z-score.
`TCATCTTTCACTGCTCCCACTGTGCTA` gave a log fluorescence of 2.92 z-score.
`CTACGCCTGCAGGTGAGCCGGTGCTAG` has a log fluorescence of -0.613 z-score.

Mixed results
P1: viral docking peptide; TSVRRALFTGGSD; partner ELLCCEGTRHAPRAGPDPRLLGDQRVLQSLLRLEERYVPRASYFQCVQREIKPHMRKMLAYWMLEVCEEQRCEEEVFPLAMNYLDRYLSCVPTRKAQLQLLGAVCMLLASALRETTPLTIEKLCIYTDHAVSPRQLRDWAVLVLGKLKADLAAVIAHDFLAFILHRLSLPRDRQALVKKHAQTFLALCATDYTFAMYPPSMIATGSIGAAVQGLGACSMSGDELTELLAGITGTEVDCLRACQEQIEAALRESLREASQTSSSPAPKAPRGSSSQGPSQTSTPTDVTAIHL
`FOXRED1 (Homo sapiens, UniProt Q96CU9)`: cross-linked residues “K184 to K148” (DMAC2 (Homo sapiens, UniProt Q9NW81); cross-linking MS; cell fractions; added: DSSO).
`P1 G10Y` — result for “normalised enrichment score”: 0.0724 (CCND3, cyclin fold, Cln2 fusion (human); yeast growth competition, sequencing; yeast; weak parent motif; baseline: not given, higher = stronger binding).
`FYTTD1 (Homo sapiens, UniProt Q96QD9)`: interaction screen “cross-linked” (CHTOP (Homo sapiens, UniProt Q9Y3Y2); cross-linking MS; hits only).
Under cross-linked residues, `CHN2 (Homo sapiens, UniProt P52757)` is recorded as “K307 to K1210” (DHX38 (Homo sapiens, UniProt Q92620); cross-linking MS; cell fractions; added: DSSO).
`SNW1 (Homo sapiens, UniProt Q13573)` — result for interaction screen: “cross-linked” (SNRNP40 (Homo sapiens, UniProt Q96DI7); cross-linking MS; hits only).

A few entries again (set 2):
`TTAGCACTGGGGTTTCGATTAGTGCTA` has a log fluorescence of 5.14 z-score.
`CTATTTTTCACCTGCACTCAGTGCTAG` has a log fluorescence of 1.47 z-score.
The log fluorescence of `GACGATTTCGGGTATCGCGACGTGCTA` is reported as 4.05 z-score.
